Results from different studies.
Every numbered part comes from another study and shows a few of its results, in no order.

Block 1
Target: Histone acetyltransferase KAT6A, winged helix 2, GST fusion (KAT6A, Homo sapiens, UniProt Q92794, residues 85-181)
Method: protein binding microarray
Form: double-stranded DNA, one strand shown
Medium: in vitro
Concentration: not given
Notes: 8-mer, flanks averaged, mean of 2 arrays, mostly near background
Baseline: not given
Reading: higher = stronger binding
Target sequence (chain): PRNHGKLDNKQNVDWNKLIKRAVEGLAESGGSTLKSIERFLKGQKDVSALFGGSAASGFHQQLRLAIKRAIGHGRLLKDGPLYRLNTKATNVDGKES
Sequence	E-score
GTCAGCAA	0.0375
GGGTCGTA	0.0021
CAGTCTCC	0.125
CCTGTACC	-0.0284
AGCGAAAA	0.196
AGTTTTTA	0.134
ATGCCAGG	0.135
CAATATCC	0.0135

Block 2
Target: Prothrombin, mature alpha-thrombin (F2, Homo sapiens, UniProt P00734)
Method: aptamer microarray, sandwich
Form: DNA with 2'F-ANA
Medium: in vitro
Concentration: 200 nM
Notes: whole 15-mer aptamer, many near background
Added: Cy3 exosite-II aptamer, 400 nM
Reading: higher = stronger binding
Sequence: GGTTGGTGTGGTTGG
Modification	mean fluorescence intensity [a.u.]
2'F-ANA at 3 9 10 11 12	584
2'F-ANA at 2 5 6 9 12 13 15	130
2'F-ANA at 2 4 6 8 11 12 13 14 15	89.4
2'F-ANA at 1 2 4 7 8 10 14	45.6
2'F-ANA at 2 5 6 8 9 10 15	52

Block 3
Target: RNA binding protein fox-1 homolog 2, RRM domain, GST-SBP tag (RBFOX2, Homo sapiens, UniProt O43251-10, residues 100-194)
Method: RNA Bind-n-Seq
Form: RNA
Medium: in vitro
Concentration: 365 nM
Notes: natural RNA segment, single round, ends assumed
Baseline: no-protein control
Reading: higher = stronger binding
Constant ends, left off below: GGGAGUUCUACAGUCCGACGAUC … UGGAAUUCUCGGGUGCCAA
Residues (chain): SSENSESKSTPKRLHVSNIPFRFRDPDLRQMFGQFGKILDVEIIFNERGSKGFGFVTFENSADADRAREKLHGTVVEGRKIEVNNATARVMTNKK
Sequence	RBNS enrichment (R)
AUCCUAGGUGCCCCCAGUGCACUGUCCUUGUCUGUCUGAAGCACCCAUCUCUACCUUCCCUGGCCAGUCCUCUGACGGUUCACAAGGGCCAGAGAUAUGGACUUUAUUUU	0.282
CCAUUGUAACGGUUCCUGGAAGCUGGGCCCUCUCAUUGGCAUAUACAGUACUCCUCGCUGCAGGGCACUGUCCCACCGGGAUCCAGUUGCAAAGUUUGUCUUGACAGUUG	0.384
UGAAGGGAUAGGACAAAAGAGACAAUCAAAUAUGGAGCUUAGCAUAGCUAGAAUGGCAUGAUGUCACUGUUCUUUUCCUGUGGCUUUUUAUUGUUGUUUCUCAUCAUUCU	0.964
UUUUACCUUAAAUCUGCCUUUGUUUCUAAAGGUAGAUCAUCUUGAAUAUUUGCUUAAAAUUGCUAGUGAUUUCAUUACCAAGUUACUUGAAAAAAUGUUCUAUAUGCAUU	0.772
CUCUCUCUCUCUCUCUCAUUAUGCCCUUGAACUGUAUUUUAGUGGUAAUGUGGGAUAGUAAUCUCAGUGAAAAGCAAACAGCGCAGGGUCUUGGAAGGGUGGUCUUUAUA	0.468
UGCUCAGUUCCCAGGUGGUUGUGUGGGUGUGUGUGCGUGCAUGUGCCCGUCCGGUAAACUAUGGUCCUGGGUGCCCAGUUGUGCAGUAGGGGGAGAAGCUGAAAGAUAAG	0.879
UUUUUUAAUUGUGAUCUAUUUUGGCUUAAUGUGAUUACCGCUGUAUUCCAAAAAAAAAAAAAAAACAGGUUCCUGUUCACAAUACCUCAUGUAUCAUCUAGCCAUGCACG	0.665
AUUUUGAAGCCAAGCUUCACUUCUAAAGUGCCUACAGAGACUUGUAAAUGAAAAUGCAGCUCUGCACGAGUUUGAAACCGUCAUACCUCCUUCUAUUAGGAAUGGCAUAU	0.357
UGGUAGCUAAUUUUUCUUUACCUAUUUUCUAAUGUCAUGAUUCCUGUUUGCCCAAUGGAUCAUUUGUAUGUUAACCACUGUAUGUAACCAACCCUUAUCUGGCAACAUAA	2.7
UCAACUCAGCAUCUCUCCCCCUAUGGACUUAACCCAAGUGUUUUUAAUGCUGGUAGCAGUUGGAUCCAGGCACAACCAGACUUAGUUGCACAACUGUAUGUGACCAAAAG	0.673

Further values, each from its own experiment
Molecule	target	test	test system	setting	scale	quantity	value
PhoQ, residues 284 288 289 292 302 303 SACGEM	PhoP, residues 12 14 15 18 19 NQGLL (Escherichia coli, UniProt P23836)	Sort-seq, item: YFP reporter	E. coli	PhoQ-PhoP variant library, added: 10 µM Mg2+	baseline: high Mg2+ state, higher = stronger signaling	fold induction	8.47

Repeated from above (block 3):
Sequence	RBNS enrichment (R)
UGCUCAGUUCCCAGGUGGUUGUGUGGGUGUGUGUGCGUGCAUGUGCCCGUCCGGUAAACUAUGGUCCUGGGUGCCCAGUUGUGCAGUAGGGGGAGAAGCUGAAAGAUAAG	0.879
UUUUUUAAUUGUGAUCUAUUUUGGCUUAAUGUGAUUACCGCUGUAUUCCAAAAAAAAAAAAAAAACAGGUUCCUGUUCACAAUACCUCAUGUAUCAUCUAGCCAUGCACG	0.665
